# Results gathered from unrelated publications.
# The chains behind the UniProt entries cited, without tags or fusion partners. Residues count along the entry.
# UniProt P35368, whole entry: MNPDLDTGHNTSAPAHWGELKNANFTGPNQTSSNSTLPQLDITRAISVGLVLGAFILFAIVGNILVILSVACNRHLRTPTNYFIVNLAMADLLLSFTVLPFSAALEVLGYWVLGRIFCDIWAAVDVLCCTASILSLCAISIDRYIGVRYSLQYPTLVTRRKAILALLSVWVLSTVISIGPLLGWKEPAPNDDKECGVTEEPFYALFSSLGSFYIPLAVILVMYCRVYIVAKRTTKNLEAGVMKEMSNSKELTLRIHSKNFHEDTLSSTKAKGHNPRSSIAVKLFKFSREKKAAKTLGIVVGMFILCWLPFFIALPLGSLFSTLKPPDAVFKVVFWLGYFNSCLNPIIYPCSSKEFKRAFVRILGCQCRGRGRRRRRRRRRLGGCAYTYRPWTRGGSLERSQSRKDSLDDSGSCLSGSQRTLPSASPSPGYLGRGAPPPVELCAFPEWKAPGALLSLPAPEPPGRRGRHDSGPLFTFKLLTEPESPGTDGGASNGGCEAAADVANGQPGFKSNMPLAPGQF
# UniProt Q13002, 32-908 limits assumed: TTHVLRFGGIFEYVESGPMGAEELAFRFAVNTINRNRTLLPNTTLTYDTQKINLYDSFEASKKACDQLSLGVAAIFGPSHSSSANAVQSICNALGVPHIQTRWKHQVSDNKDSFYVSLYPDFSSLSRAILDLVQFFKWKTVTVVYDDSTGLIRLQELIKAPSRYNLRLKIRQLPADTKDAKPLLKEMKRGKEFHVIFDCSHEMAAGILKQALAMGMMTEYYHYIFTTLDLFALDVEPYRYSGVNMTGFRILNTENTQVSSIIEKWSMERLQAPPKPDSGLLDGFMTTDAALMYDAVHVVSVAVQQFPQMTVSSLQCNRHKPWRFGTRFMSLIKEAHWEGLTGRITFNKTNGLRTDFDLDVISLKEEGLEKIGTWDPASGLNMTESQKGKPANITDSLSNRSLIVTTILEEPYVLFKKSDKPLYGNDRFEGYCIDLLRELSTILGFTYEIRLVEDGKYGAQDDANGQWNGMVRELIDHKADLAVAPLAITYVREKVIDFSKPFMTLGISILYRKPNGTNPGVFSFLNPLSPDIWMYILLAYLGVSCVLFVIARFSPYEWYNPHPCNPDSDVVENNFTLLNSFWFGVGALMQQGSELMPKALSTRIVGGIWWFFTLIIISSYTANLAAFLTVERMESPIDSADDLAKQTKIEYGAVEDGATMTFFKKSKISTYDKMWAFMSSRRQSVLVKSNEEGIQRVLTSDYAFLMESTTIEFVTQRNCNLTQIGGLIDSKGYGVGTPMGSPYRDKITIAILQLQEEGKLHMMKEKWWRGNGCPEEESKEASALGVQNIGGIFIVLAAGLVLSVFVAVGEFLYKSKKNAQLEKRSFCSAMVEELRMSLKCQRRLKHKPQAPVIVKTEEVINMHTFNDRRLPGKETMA
# UniProt P23458, whole entry: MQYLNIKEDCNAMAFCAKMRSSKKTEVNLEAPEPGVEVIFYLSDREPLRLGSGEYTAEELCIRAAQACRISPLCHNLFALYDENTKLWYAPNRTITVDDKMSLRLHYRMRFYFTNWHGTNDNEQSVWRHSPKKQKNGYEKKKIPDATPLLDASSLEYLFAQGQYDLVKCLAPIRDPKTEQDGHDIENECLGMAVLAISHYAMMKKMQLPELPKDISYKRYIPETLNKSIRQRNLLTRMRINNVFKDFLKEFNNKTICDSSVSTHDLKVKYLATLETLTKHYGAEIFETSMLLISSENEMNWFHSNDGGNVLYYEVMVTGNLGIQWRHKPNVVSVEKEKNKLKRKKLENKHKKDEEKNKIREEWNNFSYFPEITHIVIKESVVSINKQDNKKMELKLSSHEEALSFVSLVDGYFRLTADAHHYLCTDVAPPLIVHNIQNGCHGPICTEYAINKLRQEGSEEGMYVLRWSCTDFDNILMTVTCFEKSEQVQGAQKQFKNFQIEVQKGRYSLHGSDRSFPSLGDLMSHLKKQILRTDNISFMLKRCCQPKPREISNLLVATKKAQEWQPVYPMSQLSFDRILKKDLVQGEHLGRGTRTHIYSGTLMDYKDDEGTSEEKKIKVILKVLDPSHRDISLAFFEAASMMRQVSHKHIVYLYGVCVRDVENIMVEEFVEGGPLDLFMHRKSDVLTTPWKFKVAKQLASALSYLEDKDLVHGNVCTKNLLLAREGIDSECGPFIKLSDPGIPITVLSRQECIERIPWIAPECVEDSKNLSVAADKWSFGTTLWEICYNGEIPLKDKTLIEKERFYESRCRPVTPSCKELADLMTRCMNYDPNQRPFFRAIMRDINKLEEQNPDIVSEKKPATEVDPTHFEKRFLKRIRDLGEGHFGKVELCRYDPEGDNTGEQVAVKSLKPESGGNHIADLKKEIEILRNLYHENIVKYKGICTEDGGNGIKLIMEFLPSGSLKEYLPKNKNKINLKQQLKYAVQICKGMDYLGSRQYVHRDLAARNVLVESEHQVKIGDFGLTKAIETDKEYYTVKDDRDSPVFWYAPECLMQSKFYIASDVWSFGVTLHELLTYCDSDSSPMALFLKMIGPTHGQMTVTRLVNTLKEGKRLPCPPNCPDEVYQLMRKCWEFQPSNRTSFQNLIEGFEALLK
# UniProt O43175, whole entry K58A/T60A: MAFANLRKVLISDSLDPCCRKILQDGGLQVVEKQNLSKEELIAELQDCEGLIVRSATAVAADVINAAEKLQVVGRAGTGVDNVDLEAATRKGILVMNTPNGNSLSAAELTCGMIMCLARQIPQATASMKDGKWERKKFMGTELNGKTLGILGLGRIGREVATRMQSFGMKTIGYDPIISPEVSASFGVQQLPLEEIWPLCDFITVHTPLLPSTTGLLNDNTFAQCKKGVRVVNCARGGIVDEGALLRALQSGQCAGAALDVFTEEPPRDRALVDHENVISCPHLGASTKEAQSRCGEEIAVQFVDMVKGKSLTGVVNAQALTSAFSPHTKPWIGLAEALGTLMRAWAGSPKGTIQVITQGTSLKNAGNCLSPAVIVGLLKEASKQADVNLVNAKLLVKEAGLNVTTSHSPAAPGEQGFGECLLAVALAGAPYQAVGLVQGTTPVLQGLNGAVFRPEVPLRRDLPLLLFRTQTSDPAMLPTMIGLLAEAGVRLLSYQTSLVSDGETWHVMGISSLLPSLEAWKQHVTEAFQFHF
# UniProt P07333, whole entry, looked up: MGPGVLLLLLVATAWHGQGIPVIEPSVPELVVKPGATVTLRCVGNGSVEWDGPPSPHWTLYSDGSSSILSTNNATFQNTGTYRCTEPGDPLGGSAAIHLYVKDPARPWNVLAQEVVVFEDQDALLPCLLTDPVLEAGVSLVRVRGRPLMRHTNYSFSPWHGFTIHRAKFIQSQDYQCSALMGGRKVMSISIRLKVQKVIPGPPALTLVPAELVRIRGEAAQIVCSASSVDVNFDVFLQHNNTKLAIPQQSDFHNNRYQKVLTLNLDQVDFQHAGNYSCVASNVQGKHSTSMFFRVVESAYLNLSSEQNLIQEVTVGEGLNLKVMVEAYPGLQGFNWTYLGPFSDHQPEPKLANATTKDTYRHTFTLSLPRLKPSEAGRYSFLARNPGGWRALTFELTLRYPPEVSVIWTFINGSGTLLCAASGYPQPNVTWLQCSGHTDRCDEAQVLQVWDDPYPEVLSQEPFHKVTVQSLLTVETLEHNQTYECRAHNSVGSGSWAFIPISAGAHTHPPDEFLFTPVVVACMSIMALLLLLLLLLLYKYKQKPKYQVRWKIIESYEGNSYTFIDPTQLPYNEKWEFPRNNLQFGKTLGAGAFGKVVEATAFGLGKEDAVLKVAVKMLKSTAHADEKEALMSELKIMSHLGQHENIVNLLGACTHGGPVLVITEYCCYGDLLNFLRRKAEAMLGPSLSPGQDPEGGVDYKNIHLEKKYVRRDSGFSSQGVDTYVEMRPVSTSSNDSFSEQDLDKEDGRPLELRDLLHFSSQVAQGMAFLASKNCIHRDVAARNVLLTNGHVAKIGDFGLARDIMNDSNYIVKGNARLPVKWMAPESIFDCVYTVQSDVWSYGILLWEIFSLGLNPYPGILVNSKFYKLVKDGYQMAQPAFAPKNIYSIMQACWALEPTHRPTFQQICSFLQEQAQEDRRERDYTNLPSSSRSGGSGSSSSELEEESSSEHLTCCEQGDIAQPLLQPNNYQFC
# UniProt Q00959, whole entry, looked up: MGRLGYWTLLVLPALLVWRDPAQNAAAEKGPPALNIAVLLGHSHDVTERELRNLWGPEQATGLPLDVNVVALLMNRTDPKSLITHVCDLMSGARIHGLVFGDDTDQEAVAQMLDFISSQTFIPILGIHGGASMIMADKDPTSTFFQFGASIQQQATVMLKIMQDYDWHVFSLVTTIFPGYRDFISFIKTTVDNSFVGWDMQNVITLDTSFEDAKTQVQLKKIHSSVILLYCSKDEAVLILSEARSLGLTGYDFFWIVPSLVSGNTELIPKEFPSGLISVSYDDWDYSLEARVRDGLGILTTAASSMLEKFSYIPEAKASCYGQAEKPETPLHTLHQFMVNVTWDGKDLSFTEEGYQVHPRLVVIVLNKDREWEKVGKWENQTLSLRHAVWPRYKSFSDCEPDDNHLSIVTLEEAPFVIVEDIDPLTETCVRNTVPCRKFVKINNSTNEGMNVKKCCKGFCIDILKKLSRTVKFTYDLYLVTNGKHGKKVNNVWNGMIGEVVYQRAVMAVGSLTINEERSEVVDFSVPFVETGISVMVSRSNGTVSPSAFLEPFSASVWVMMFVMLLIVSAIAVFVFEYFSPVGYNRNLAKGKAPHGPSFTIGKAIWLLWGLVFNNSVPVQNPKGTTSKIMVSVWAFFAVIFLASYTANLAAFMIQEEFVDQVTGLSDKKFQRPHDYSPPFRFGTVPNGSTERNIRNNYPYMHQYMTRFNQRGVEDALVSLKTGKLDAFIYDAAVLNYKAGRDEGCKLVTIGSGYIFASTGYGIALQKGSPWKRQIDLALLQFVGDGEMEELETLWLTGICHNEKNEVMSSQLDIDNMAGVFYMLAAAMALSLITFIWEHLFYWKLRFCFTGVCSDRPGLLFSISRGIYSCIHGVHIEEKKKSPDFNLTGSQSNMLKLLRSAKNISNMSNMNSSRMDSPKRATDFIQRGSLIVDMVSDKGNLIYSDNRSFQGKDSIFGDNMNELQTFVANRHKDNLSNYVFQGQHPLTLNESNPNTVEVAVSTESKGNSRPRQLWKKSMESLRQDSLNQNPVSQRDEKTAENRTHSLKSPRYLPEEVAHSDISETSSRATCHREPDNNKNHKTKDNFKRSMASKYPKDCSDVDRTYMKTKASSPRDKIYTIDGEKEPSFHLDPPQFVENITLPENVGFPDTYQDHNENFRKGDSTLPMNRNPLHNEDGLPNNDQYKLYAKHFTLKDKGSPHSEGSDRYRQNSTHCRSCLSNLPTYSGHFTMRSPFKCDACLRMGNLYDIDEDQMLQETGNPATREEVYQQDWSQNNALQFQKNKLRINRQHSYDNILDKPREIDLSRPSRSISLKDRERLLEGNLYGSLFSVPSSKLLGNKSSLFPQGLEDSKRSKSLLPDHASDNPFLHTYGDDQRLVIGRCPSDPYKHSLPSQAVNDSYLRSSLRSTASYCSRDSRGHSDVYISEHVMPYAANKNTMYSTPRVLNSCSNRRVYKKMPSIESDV
# UniProt P22303, whole entry, looked up: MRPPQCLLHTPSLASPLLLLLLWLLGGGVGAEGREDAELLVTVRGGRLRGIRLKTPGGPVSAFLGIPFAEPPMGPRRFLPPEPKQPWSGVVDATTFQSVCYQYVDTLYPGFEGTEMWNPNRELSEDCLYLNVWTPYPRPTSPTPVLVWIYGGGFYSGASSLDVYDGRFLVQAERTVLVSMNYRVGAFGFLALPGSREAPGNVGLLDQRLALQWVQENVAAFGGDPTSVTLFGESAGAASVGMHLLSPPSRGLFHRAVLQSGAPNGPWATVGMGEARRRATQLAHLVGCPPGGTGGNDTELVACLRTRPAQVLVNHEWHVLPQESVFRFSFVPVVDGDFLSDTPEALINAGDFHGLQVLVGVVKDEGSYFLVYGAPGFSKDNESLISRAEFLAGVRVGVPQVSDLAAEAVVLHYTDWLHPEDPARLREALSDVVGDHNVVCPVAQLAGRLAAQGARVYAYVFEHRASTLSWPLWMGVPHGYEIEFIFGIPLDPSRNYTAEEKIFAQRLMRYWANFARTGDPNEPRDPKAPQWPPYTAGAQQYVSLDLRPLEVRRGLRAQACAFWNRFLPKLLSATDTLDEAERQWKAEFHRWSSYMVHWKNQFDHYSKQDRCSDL
# UniProt P28074, whole entry, looked up: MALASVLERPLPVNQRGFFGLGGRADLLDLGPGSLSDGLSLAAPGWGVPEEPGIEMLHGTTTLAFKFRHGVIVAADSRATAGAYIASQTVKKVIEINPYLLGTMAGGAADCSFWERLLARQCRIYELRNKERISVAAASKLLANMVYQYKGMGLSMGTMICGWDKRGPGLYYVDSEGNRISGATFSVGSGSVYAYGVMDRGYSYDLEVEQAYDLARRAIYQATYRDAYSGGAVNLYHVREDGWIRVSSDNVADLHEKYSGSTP
# Lines come from different studies, so protocols differ. Numbers after ± are the reported error.
Compound,tested on,test,test system,conditions,scale,quantity,value
CCCN1CCN(c2ccc3c(c2)C2CC3CCN2C(=O)OCc2ccccc2)CC1 (stereo not drawn),"Alpha-1B adrenergic receptor (ADRA1B, Homo sapiens, UniProt P35368)","binding, radioligand binding",,,,Ki,> 10 µM
CCN(CC)C(=O)Oc1ccc(C(=O)Nc2cccc3cc[nH]c23)cc1,"Glutamate receptor ionotropic, kainate 2 (Homo sapiens, UniProt Q13002)","modulator, two-electrode voltage clamp",Xenopus oocytes,"20 µM, with: 100 µM glutamate",relative to: agonist alone,current response,101 ± 3.2%
CCN1CCN(Cc2ccc(NC(=O)c3ccc(C)c(/C=C/c4cnc5[nH]ccc5c4OC)c3)cc2C(F)(F)F)CC1,"Tyrosine-protein kinase JAK1 (JAK1, Homo sapiens, UniProt P23458)","inhibitor, kinome profiling",human cells,5 µM,relative to: vehicle,log2 fold change,0.212
O=C(N/N=C/c1cc([N+](=O)[O-])ccc1O)c1ccc(O)cc1O,"D-3-phosphoglycerate dehydrogenase (PHGDH, Homo sapiens, UniProt O43175, K58A/T60A)","enzyme activity, inhibitor",,K57A T59A mutant,,maximum inhibition,47%
O=C(c1ncco1)C1CCc2ccccc2C1 (stereo not drawn),"Fatty-acid amide hydrolase 1 (Faah, Rattus norvegicus, UniProt P97612)","enzyme activity, inhibitor, Dixon plot",,"pH 9.0, room temperature, with: 14C-oleamide",relative to: (S)- over (R)-enantiomer,enantiomer potency ratio,~2 fold
C[C@H](Cc1ccc(O)c(O)c1)[C@@H](C)Cc1ccc(O)c(O)c1,,,human skin,"3% solution, 8 h, skin UV-treated 30 min",,amount in epidermis,12.7 ± 0.88 µg
CC#C/C(=N\OC[C@H]1COCCN1)c1ccc2ncnc(Nc3ccc(OCc4cccc(F)c4)c(Cl)c3)c2c1,"Macrophage colony-stimulating factor 1 receptor (CSF1R, Homo sapiens, UniProt P07333)",kinase activity,,10 µM,,inhibition,-1.7%
COc1ccc(OC[C@H]2c3cccn3CC(=O)N2Cc2cccc(F)c2)cc1,"Glutamate receptor ionotropic, NMDA 2A, with GluN1 (Grin2a, Rattus norvegicus, UniProt Q00959)","ion current, whole-cell patch clamp","HEK293T cells, transfected","10 µM, with: 1 mM glutamate for 10 ms plus 100 µM glycine",,charge transfer,-4.8 ± 2.7 nA·ms
O=C(Nc1ccccc1)c1cc([N+](=O)[O-])ccc1Cl,Salmonella typhimurium,Ames plate incorporation,TA100,"500 µg/plate, without metabolic activation",,revertants,2040 ± 46 revertants/plate
CSc1nc(Cl)cc(Sc2nnc(-c3cc(C(F)(F)F)cc(C(F)(F)F)c3)[nH]2)n1,Klebsiella spp.,,,with: NAB7061 4 µg/mL,,MIC,11.8 µg/mL
O=C(NOCC1CC1)c1cc(Br)c(F)c(F)c1Nc1ccc(I)cc1Cl,"Acetylcholinesterase (ACHE, Homo sapiens, UniProt P22303)","enzyme activity, inhibitor",,,,IC50,inactive
O=c1oc(-c2cccc(C(F)(F)F)c2)ns1,"Proteasome Macropain subunit MB1 (PSMB5, Homo sapiens, UniProt P28074)",inactivation,human PA28-activated proteasome,,,kobs/[I],0.4 M⁻¹ s⁻¹

# For quick reference, copied from above:
Compound,tested on,test,test system,conditions,scale,quantity,value
O=C(c1ncco1)C1CCc2ccccc2C1 (stereo not drawn),"Fatty-acid amide hydrolase 1 (Faah, Rattus norvegicus, UniProt P97612)","enzyme activity, inhibitor, Dixon plot",,"pH 9.0, room temperature, with: 14C-oleamide",relative to: (S)- over (R)-enantiomer,enantiomer potency ratio,~2 fold
